Experimental data of several laboratories.
Each numbered part is a random draw from the data of one study; scales do not carry over between parts. Several values in a cell are separate wells, animals, samples, runs or records.
Sequence of UniProt Q9UHD2 (whole entry, looked up): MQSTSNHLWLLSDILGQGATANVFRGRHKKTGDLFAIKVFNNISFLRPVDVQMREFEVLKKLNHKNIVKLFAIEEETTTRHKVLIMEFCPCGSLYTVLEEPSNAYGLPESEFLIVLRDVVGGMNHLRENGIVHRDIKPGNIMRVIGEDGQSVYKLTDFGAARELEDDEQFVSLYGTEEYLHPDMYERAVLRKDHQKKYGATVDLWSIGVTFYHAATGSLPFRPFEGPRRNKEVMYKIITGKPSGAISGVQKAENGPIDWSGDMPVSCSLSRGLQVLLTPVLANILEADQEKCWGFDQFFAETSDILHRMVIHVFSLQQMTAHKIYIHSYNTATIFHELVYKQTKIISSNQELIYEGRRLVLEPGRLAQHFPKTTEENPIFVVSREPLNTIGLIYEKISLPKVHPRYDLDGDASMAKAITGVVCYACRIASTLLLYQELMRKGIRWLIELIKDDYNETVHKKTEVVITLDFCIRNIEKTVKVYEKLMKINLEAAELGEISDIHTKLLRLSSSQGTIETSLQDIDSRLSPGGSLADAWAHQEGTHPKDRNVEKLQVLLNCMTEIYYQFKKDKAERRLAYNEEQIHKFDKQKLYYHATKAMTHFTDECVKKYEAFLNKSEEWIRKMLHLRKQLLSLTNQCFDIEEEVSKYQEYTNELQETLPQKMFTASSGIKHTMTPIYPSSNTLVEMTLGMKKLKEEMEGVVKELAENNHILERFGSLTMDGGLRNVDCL
Sequence of UniProt Q86UX6 (whole entry, looked up): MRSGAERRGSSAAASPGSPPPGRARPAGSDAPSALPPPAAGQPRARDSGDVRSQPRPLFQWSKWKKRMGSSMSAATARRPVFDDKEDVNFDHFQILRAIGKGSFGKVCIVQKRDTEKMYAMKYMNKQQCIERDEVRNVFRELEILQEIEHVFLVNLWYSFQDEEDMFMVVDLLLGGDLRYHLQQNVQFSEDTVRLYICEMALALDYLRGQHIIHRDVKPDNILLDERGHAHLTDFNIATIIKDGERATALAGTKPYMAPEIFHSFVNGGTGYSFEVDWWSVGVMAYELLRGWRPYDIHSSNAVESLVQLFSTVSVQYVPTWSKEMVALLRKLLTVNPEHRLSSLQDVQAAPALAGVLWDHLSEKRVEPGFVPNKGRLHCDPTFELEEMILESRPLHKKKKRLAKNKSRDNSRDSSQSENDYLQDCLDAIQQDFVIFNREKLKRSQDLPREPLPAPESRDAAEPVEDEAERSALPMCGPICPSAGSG

Set 1
Cell line: HaCaT
Concentration: 100 µM
Time: 60 h
Endpoint: viability
OC1(c2ccc(Cl)c(C(F)(F)F)c2)CCN(CCCC(c2ccc(F)cc2)c2ccc(F)cc2)CC1: 17.8%
CC(=O)O[C@@]12CO[C@@H]1C[C@H](O)[C@@]1(C)C(=O)[C@H](O)C3=C(C)[C@@H](OC(=O)[C@H](O)[C@@H](NC(=O)OC(C)(C)C)c4ccccc4)C[C@@](O)([C@@H](OC(=O)c4ccccc4)[C@H]21)C3(C)C: 21.5%
CC(=O)OCC(COC(C)=O)OC(C)=O: 126%
NCCNc1ccc(NCCN)c2c1C(=O)c1ccncc1C2=O: 13.5%

Set 2
SMILES: CCC(=O)N1CCN(c2nc(OC[C@@H]3CCCN3C)nc3c2CCN(c2cccc4cccc(Cl)c24)C3)C[C@@H]1CC#N
Read-out: binding
Action: competitor
Method: NanoBRET
Cells: HEK293
Endpoint: normalized BRET
KRAS Q61H: GTPase KRas (KRAS, Homo sapiens, UniProt P01116, Q61H)
KRAS Q61H; 5.08 nM: 95.1% and 96.9% and 103%
GTPase KRas (KRAS, Homo sapiens, UniProt P01116, G12D); 5.08 nM: 102% and 98.5%
KRAS Q61H; 1.69 nM: 99.3% and 94.5% and 111%

Set 3
Structure (SMILES): Cn1nc(C(=O)NCc2ccc(C(=O)O)cc2)cc1-c1ccc2[nH]ccc2c1
Read-out: cell-free assay
Method: competition with immobilised ligand
Concentration: 0.1 µM
Endpoint: remaining binding
Receptor-type tyrosine-protein kinase FLT3 (FLT3, Homo sapiens, UniProt P36888, D835V/ITD): 99%
Serine/threonine-protein kinase 32C (STK32C, Homo sapiens, UniProt Q86UX6): 100%
Serine/threonine-protein kinase TBK1 (TBK1, Homo sapiens, UniProt Q9UHD2): 77%

Set 4
Compound: CC(=O)N[C@@H](Cc1c[nH]c2ccccc12)C(=O)N[C@@H](CCC(=O)C=[N+]=[N-])C(=O)OC(C)C
Endpoint: tumour volume
mouse, EL4 tumour; subcutaneous, 1 mg/kg, day 14: 0 mm3 and 139 mm3 and 90.9 mm3 and 387 mm3
mice, MC-38 tumour rechallenge; 0.26 mg/kg, day 71 after injection: 0 mm3
mice, MC-38 tumour rechallenge; 0.26 mg/kg, day 43 after injection: 0 mm3
mouse, EL4 tumour; subcutaneous, 0.1 mg/kg, day 14: 148 mm3 and 830 mm3 and 2300 mm3 and 553 mm3 and 1230 mm3 and 614 mm3
mouse, EL4 tumour; subcutaneous, 0.1 mg/kg, day 11: 584 mm3 and 738 mm3 and 692 mm3 and 653 mm3 and 1340 mm3 and 2040 mm3

Set 5
Target: Dual specificity protein kinase CLK3 (CLK3, Homo sapiens, UniProt P49761)
Sequence of UniProt P49761 (whole entry, looked up): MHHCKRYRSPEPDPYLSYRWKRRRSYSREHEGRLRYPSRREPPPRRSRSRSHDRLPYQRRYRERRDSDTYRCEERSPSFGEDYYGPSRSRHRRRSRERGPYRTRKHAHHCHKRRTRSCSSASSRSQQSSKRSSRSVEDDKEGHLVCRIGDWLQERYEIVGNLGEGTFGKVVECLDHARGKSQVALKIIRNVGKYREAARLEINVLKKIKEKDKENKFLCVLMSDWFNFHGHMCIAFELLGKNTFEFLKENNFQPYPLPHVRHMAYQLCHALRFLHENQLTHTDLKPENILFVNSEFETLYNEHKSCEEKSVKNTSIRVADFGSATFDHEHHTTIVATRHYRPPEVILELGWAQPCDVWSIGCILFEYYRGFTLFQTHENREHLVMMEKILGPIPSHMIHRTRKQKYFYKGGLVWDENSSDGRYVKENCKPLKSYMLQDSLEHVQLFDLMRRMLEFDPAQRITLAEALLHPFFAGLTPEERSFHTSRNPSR
Read-out: enzyme activity
Action: inhibitor
Concentration: 0.5 µM
Baseline: control
Endpoint: remaining activity
Nc1ncnc2n[nH]c(Nc3ccc(F)cc3)c12: 112%
CCOC(=O)c1c(C)[nH]c(/C=C2\C(=O)Nc3ccccc32)c1C: 100%
Cc1nc(-c2ccccc2)c(-c2ccncc2)o1: 90.6%
CO[C@H]1C[C@@H]2CC[C@@H](C)[C@@](O)(O2)C(=O)C(=O)N2CCCC[C@H]2C(=O)O[C@H]([C@H](C)C[C@@H]2CC[C@@H](O)[C@H](OC)C2)CC(=O)[C@H](C)/C=C(\C)[C@@H](O)[C@@H](OC)C(=O)[C@H](C)C[C@H](C)/C=C/C=C/C=C/1C: 94.4%
C#Cc1cccc(Nc2ncnc3cc(OCCOC)c(OCCOC)cc23)c1: 108%
Cc1ccc(Nc2nccc(N(C)c3ccc4c(C)n(C)nc4c3)n2)cc1S(N)(=O)=O: 107%
O=C(Nc1cccc(Nc2cc(Nc3cccc(C(F)(F)F)c3)ncn2)c1)C1CC1: 102%
COc1ccc(OC)c2c(=S)c3ccccc3[nH]c12: 96.3%
O=C(O)c1ccc2c3c1cccc3c(=O)n1c3ccccc3nc21: 95.4%
COc1cc2ncnc(Nc3ccc(Oc4ccccc4)cc3)c2cc1OC: 101%
COc1cc2nccc(Oc3ccc(NC(=S)NC(=O)c4ccccc4C)cc3)c2cc1OC: 93.2%
Cc1cccc(-c2[nH]c(C(C)(C)C)nc2-c2ccc3c(c2)OCO3)n1: 104%
CC(C)[C@H](CO)Nc1nc(Nc2cc(N)cc(Cl)c2)c2ncn(C(C)C)c2n1: 85.5%
CNC(=O)c1cc(Oc2ccc(NC(=O)Nc3ccc(Cl)c(C(F)(F)F)c3)cc2)ccn1: 99.3%
O=C1NC(=O)C(c2cn(CCCn3ccnc3)c3ccccc23)=C1Nc1ccccc1: 93.9%

Repeated from above (set 2):
KRAS Q61H; 5.08 nM: 95.1% and 96.9% and 103%
GTPase KRas (KRAS, Homo sapiens, UniProt P01116, G12D); 5.08 nM: 102% and 98.5%
KRAS Q61H; 1.69 nM: 99.3% and 94.5% and 111%
